Assay results gathered from unrelated publications.
Lines come from different studies, so protocols differ. Values joined by “and” are separate records of one study, mostly repeats; a detail may differ. Numbers after ± are the reported error.
DRD4: D(4) dopamine receptor (DRD4, Homo sapiens, UniProt P21917)
Chain of UniProt P21917 (whole entry, looked up): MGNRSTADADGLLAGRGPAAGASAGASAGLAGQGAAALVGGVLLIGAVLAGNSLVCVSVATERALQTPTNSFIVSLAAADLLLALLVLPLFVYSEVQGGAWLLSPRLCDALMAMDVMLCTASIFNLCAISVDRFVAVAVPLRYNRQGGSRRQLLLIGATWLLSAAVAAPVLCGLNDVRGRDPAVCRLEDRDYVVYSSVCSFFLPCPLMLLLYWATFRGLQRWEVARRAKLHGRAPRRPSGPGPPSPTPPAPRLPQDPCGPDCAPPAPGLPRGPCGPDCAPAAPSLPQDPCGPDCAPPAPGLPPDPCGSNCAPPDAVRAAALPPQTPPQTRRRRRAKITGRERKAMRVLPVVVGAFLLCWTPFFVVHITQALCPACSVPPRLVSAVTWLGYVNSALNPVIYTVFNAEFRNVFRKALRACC
AMY2: Pancreatic alpha-amylase (AMY2, Sus scrofa, UniProt P00690)
Chain of UniProt P00690 (whole entry, looked up): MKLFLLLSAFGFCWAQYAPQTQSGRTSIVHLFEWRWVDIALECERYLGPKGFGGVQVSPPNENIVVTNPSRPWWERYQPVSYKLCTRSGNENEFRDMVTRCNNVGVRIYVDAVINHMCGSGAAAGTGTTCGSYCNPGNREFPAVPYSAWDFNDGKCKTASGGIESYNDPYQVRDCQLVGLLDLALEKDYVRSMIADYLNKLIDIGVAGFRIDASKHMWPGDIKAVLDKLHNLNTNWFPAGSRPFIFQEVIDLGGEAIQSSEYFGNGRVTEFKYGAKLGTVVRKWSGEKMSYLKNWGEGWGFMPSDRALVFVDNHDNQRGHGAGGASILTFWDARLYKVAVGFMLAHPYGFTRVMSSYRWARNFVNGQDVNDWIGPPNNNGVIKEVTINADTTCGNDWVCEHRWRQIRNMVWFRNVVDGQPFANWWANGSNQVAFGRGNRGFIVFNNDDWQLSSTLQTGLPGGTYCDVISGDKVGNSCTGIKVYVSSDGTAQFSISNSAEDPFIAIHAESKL
HTR5A: 5-hydroxytryptamine receptor 5A (HTR5A, Homo sapiens, UniProt P47898)
Chain of UniProt P47898 (whole entry, looked up): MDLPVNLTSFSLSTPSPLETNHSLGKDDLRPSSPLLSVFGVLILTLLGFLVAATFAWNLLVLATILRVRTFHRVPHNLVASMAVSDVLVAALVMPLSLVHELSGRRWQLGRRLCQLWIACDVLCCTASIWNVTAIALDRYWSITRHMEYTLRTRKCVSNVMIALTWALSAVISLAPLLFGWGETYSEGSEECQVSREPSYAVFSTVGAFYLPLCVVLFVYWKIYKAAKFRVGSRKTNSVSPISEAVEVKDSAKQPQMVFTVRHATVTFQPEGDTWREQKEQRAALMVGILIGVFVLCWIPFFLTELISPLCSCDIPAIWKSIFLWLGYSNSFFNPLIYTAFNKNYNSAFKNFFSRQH
HTR2B: 5-hydroxytryptamine receptor 2B (HTR2B, Homo sapiens, UniProt P41595)
Chain of UniProt P41595 (whole entry, looked up): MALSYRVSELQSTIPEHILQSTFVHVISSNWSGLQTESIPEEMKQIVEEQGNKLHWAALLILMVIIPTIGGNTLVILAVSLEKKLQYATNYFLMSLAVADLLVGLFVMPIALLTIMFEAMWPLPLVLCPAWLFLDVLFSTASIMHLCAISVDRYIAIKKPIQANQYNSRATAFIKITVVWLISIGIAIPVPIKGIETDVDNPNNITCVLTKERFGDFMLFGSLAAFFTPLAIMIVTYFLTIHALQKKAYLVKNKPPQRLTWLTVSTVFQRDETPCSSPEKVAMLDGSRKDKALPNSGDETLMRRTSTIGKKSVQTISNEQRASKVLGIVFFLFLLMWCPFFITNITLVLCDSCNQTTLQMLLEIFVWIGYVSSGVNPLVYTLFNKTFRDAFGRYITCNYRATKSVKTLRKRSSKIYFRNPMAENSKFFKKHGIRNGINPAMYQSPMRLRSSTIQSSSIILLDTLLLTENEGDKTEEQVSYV
HDAC11: Histone deacetylase 11 (HDAC11, Homo sapiens, UniProt Q96DB2)
Chain of UniProt Q96S37 (whole entry, looked up): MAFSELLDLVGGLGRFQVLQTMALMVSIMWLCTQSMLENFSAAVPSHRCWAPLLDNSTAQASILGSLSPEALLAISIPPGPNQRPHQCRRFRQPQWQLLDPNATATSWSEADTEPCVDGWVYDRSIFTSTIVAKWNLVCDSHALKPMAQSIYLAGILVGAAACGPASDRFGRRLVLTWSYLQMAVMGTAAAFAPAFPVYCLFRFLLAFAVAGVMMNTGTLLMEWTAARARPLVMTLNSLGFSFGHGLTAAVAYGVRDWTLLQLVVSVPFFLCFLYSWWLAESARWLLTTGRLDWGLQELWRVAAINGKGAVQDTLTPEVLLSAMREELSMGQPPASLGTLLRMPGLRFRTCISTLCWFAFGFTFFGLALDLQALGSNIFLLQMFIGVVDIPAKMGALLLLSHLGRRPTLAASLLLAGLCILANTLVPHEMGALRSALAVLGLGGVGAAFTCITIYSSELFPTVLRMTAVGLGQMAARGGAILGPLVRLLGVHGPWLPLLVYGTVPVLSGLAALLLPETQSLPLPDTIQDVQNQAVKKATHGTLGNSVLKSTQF
Chain of UniProt Q96DB2 (whole entry, looked up): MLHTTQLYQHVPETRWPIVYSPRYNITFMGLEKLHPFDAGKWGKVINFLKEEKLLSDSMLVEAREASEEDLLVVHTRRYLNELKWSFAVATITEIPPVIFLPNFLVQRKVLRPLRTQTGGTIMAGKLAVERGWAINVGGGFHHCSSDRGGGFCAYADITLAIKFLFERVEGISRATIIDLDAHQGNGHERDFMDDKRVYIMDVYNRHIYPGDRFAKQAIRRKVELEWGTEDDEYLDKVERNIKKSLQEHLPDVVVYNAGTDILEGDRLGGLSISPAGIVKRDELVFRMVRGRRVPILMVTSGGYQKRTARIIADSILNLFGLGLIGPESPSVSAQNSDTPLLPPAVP
Chain of UniProt Q8N4C8 (whole entry, looked up): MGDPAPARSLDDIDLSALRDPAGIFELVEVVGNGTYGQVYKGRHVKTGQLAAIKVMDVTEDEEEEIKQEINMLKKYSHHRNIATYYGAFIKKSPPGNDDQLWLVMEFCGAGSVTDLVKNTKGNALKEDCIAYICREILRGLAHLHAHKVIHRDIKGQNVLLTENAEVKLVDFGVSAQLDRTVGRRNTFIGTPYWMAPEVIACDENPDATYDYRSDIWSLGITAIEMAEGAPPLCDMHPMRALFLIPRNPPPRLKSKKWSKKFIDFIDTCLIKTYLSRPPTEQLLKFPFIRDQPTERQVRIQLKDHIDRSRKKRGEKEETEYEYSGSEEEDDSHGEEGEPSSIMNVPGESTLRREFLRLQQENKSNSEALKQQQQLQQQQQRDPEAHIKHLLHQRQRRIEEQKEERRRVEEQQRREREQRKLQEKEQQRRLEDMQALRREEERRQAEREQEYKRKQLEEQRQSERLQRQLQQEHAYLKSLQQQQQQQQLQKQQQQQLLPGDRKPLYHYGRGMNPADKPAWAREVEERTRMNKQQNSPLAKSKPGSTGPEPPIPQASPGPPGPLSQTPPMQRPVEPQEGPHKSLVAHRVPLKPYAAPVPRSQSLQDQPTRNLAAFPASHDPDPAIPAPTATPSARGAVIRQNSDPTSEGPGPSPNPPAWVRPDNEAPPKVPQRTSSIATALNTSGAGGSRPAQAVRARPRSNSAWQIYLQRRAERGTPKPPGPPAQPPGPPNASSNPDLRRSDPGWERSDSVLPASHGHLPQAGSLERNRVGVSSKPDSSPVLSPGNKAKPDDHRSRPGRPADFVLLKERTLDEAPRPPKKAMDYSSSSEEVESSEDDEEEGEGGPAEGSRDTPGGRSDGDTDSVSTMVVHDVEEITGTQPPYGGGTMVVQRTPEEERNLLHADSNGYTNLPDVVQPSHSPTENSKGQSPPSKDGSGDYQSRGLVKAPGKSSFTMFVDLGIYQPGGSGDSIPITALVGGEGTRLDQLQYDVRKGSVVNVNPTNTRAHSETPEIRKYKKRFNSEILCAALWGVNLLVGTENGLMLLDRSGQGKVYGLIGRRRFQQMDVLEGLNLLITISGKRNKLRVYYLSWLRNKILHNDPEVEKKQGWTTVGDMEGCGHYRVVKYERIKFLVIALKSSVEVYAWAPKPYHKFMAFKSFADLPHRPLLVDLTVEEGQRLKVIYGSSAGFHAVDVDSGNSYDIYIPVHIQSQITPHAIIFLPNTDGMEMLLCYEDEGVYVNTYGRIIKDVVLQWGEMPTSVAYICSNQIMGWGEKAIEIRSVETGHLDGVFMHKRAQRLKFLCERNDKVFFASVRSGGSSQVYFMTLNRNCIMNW
Chain of UniProt P00591 (whole entry, looked up): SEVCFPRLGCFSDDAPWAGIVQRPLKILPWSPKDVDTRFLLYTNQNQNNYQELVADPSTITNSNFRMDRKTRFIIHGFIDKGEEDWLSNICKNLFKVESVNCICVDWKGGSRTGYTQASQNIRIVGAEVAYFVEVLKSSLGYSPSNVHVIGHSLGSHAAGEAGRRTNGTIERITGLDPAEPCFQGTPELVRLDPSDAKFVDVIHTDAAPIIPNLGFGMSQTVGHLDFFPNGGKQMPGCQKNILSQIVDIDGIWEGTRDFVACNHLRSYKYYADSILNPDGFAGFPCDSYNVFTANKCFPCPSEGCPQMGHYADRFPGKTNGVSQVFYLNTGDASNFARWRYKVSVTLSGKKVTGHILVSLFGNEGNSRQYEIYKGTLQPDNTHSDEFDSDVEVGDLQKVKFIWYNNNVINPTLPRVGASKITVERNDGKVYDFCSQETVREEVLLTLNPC
Chain of UniProt Q8N884 (whole entry, looked up): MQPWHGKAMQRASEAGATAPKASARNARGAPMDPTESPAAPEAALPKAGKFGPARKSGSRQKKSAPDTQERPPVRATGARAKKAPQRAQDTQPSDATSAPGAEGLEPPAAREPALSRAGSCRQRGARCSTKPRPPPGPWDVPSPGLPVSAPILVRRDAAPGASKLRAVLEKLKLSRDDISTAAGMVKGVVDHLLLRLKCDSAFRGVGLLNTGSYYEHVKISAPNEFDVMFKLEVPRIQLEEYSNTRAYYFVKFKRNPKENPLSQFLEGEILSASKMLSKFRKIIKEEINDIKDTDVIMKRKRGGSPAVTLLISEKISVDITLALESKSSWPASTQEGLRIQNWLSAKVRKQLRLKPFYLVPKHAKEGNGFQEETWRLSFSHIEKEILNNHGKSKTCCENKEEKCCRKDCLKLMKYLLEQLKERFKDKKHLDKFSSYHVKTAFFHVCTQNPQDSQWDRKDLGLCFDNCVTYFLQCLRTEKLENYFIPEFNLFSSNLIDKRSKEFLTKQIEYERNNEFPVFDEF

SMILES	target	test	test system	conditions	inhibition
O=C(CN1CCO[C@@H](COc2cccnc2)C1)N1CCc2ccccc21	DRD4	radioligand binding	–	concentration not given, added: [3H]N-methylspiperone	38.9%
Cc1cc(=O)oc2ccc(-c3cc(-c4cccc([N+](=O)[O-])c4)nc(N)n3)c(O)c12	AMY2	enzyme activity, inhibitor	–	concentration not given	70.7 ± 1.24%
C#Cc1cc(-c2cc(Nc3nc(N[C@@H](C)c4ccc(F)cn4)ncc3Cl)n[nH]2)ccc1C=O	cAMP-dependent protein kinase catalytic subunit PRKX (PRKX, Homo sapiens, UniProt P51817)	enzyme activity, inhibitor	–	0.2 µM	56.7%
O=C(NO)c1ccc(CN2CCCCc3ccccc32)c(F)c1	sigma-2 receptor	radioligand binding	–	10 µM, mean	-5.45%
O=C(CN1CCO[C@H](COc2cccc(Cl)c2)C1)N1CCc2ccccc21	HTR5A	radioligand binding	–	concentration not given, added: [3H]LSD	2%
O=C(Nc1cccc2c(=O)cc(-c3nnn[nH]3)oc12)c1ccc(OCCCCc2ccccc2)cc1	Volume-regulated anion channel subunit LRRC8C, part LRRC8A IL1 chimera (LRRC8C, Homo sapiens, UniProt Q8TDW0, Y126F)	ion current, inhibitor, whole-cell patch clamp	HCT LRRC8-/- cells	3 µM, +100 mV	89.3% and 87.6% and 93.1% and 94.1%
NC/C(=C\F)COc1cccc(Cn2c(=S)[nH]c(=O)c3[nH]cnc32)c1	rat P2Y receptor	radioligand binding	–	10 µM	< 50%
c1cncc(OC[C@H]2CN(CCN3CCc4ccccc43)CCO2)c1	HTR2B	radioligand binding	–	concentration not given, added: [3H]LSD	41.2%
CC[C@@H]1[C@H](F)C(=O)N[C@@H]1COc1nccc2cc(C(N)=O)c(OC)cc12	Dual specificity protein kinase CLK3 (CLK3, Homo sapiens, UniProt P49761)	ATP probe binding, KiNativ profiling, refers to: ATP loop probe site	THP-1 cell lysate	0.01 mM	8.2%
O=C1c2ccccc2CCN1CCCCN1CCN(c2cccc(Cl)c2Cl)CC1	HTR5A	radioligand binding	–	concentration not given, added: [3H]LSD	89.9%
O=C(NO)c1cc(F)cc(OS(=O)(=O)Oc2ccc(Oc3ccccc3)cc2)c1	HDAC11	–	–	5 µM	51%
O=C(c1ccc(F)cc1)C1CCN(CCn2c(=O)[nH]c3ccccc3c2=O)CC1	5-hydroxytryptamine receptor 2A (Rattus norvegicus, UniProt P14842)	radioligand binding	rat	10 µM	99.2%
O=C(CN1CCO[C@H](COc2ccccc2)C1)N1CCc2ccccc21	DRD4	radioligand binding	–	concentration not given, added: [3H]N-methylspiperone	58.5%
Cc1cc(O)c(-c2ccc([C@@H](C)CN(C)C)cc2)c2c1[nH]c(=O)c1sccc12	Misshapen-like kinase 1 (MINK1, Homo sapiens, UniProt Q8N4C8)	inhibitor, KiNativ probe labelling	cell lysate	0.1 µM	6.29%
NC(=O)c1ncn([C@@H]2O[C@H](CO[P@@](=O)(O)O[P@](=O)(O)OP(=O)(O)O)[C@@H](O)[C@H]2O)n1	Non-structural polyprotein pORF1, helicase domain (Hepatitis E virus genotype 1, UniProt P33424)	ATPase activity, inhibitor, colorimetric	–	28 µM, added: ATP 100 µM	6.92%
CN(C(=O)n1cnc(-c2ccc[n+]([O-])c2)c1)C1CCCCC1	HTR5A	–	–	10 µM	8.22%

SMILES	target	test	test system	conditions	inhibition
O=C(/C=C/c1cccc(OS(=O)(=O)Oc2ccccc2)c1)NO	HDAC11	–	–	10 µM	7%
O=C(c1ccc(-c2ccccc2)cc1)N1CCCC1c1ccco1 (stereo not shown)	β2 adrenergic receptor	GTPγS binding	–	20 µM, added: isoproterenol 10 µM	no inhibition
Cc1cc2c(cc1N1C(=O)c3cccc4c(CCCO)ccc(c34)C1=O)n(C)c(=O)n2C (racemic)	Protein polybromo-1, BD2 (PBRM1, Homo sapiens, UniProt Q86U86)	binding, BROMOscan binding	–	1000 nM	70%
CC(C)c1noc2ncc(C(=O)c3ccccc3O)cc12	Sodium channel protein type 5 subunit alpha (SCN5A, Homo sapiens, UniProt Q14524)	ion current, whole-cell patch-clamp	–	10 µM, hNaV1.5	8.87%
CCc1oc2ccccc2c1C(=O)c1cc(Br)c(O)c(Br)c1	Solute carrier family 22 member 12 (SLC22A12, Homo sapiens, UniProt Q96S37)	urate uptake	HEK-293T	0.5 µM, 10 min, 37 °C, added: [14C]urate 200 µM	65.6% and 40.6% and 69% and 59.9% and 70% and 63.8% and 67%
CN1CCN(c2cc(-c3ccncc3)c(-c3ccc4ccccc4c3)nn2)CC1	Gonadotropin-releasing hormone receptor (GNRHR, Homo sapiens, UniProt P30968)	antagonist, FLIPR	–	10 µM	-2.7%
Clc1cccc(OC[C@H]2CN(CCN3CCc4ccccc43)CCO2)c1	HTR5A	radioligand binding	–	concentration not given, added: [3H]LSD	6.1%
Cc1nn(-c2nc3c(F)cc(F)cc3s2)c(O)c1C(c1ccc(C(F)(F)F)cc1)c1c(C)nn(-c2nc3c(F)cc(F)cc3s2)c1O	Cyclic GMP-AMP synthase, catalytic domain; with DNA (CGAS, Homo sapiens, UniProt Q8N884)	cGAS phase separation, inhibitor	–	3.125 µM	32.5%
COc1cccc(OS(=O)(=O)Oc2cccc(C(=O)NO)c2)c1	HDAC11	–	–	10 µM	21%
Cc1ncccc1OC[C@H]1CN(CCN2CCc3ccccc32)CCO1	HTR2B	radioligand binding	–	concentration not given, added: [3H]LSD	50.9%
CC[C@H](CC[C@@H](C)[C@H]1CC[C@H]2[C@@H]3CC=C4C[C@@H](O[C@@H]5O[C@H](CO)[C@@H](O)[C@H](O)[C@H]5O)CC[C@]4(C)[C@H]3CC[C@]12C)C(C)C	Pancreatic triacylglycerol lipase (PNLIP, Sus scrofa, UniProt P00591)	enzyme activity	porcine	100 µg/mL, added: 4-MUO	41.8 ± 4.13%
O=c1c(O)c(-c2ccc(O)c(O)c2)oc2c(Br)c(O)c(Br)c(O)c12	AMY2	enzyme activity, inhibitor	–	50 µM, added: CNP-G3 substrate	71.5 ± 1.86%
OCCCN1CC[C@@H]2C[C@H]1c1cc(-c3ccc(C(F)(F)F)cc3)ccc12	DRD4	radioligand binding, PDSP competition binding	–	10 µM	< 50%
Cc1cc(OS(=O)(=O)Oc2ccc3ccccc3c2)cc(C(=O)NO)c1	HDAC11	–	–	10 µM	24%
COc1cc2c(cc1OC)C(=O)N(CCCCN1CCN(c3ccccc3OC)CC1)C2	HTR2B	radioligand binding	–	concentration not given, added: [3H]LSD	95.6%
